Assay results pooled from the literature.
Lines come from different studies, so protocols differ.

SMILES | test | test system | conditions | endpoint | value
COc1ncnn2ccc(-c3cnc4nc(C)n(Cc5nnc([C@@H](C)F)o5)c4c3)c12 | – | human | oral, dose not given, grade 3 | patients with any adverse reaction | 28.6%
O=C1Nc2cc3[nH]nc(-c4ccncc4)c3cc2CN1Cc1ccccc1 | CTCAE v4.03 | human, relapsed or refractory advanced solid tumours | intravenous, 0.9 mg/kg, pooled schedules | patients with QTc prolongation | 0%
COc1ccc(-c2c(-c3ccc(C#N)c(F)c3)nc(N3CCC(N)CC3)n(C)c2=O)cc1F | refers to: hepatic hemorrhage | human patients | oral, dose not given, dose escalation | patients with serious TEAE | 0%
CN(C)C(=O)c1cc2cnc(Nc3ccc(N4CCNCC4)cn3)nc2n1C1CCCC1 | refers to: Infections, AESI | human, HR+/HER2− advanced breast cancer | oral, dose not given, all grades, CTCAE v4.03 | patients with adverse event | 57%
CN[C@@H](C)C(=O)N[C@H]1CN(S(=O)(=O)c2cccc(S(=O)(=O)N3CC[C@H]4CC[C@@H](C(=O)NC(c5ccccc5)c5ccccc5)N4C(=O)[C@@H](NC(=O)[C@H](C)NC)C3)c2)CC[C@H]2CC[C@@H](C(=O)NC(c3ccccc3)c3ccccc3)N2C1=O | – | human, advanced solid tumours | intravenous, 0.3 mg weekly, CTCAE version 4.0 | patients with any TRAE | 0%
C[C@@H]1OC(=O)NN=C1c1ccc(-c2ccc(F)cc2)c(C(F)(F)F)c1 | phase I trial, refers to: platelet count decreased | human patients | dose not given, worst grade 3, all doses | patients with TEAE | 20%
N[C@@H]1c2ccccc2OC12CCN(c1cnc3c(N4CCCc5ncccc54)n[nH]c3n1)CC2 | refers to: Diarrhea | human advanced or metastatic solid tumours | oral, 60 mg once daily, phase Ia pooled cohort | patients with treatment-emergent adverse event | 64%
Cc1cn([C@H]2O[C@@H](CO[P@@](=O)(N[C@@H](C)C(=O)OC(C)C)Oc3ccccc3)[C@H](O)[C@H]2F)c(=O)[nH]c1=O | refers to: ALT/AST elevated | human | 10 mg | patients with TEAE | 0%
C=CC(=O)Nc1cc(Nc2nccc(Nc3cc(Cl)c(F)cc3C(C)(C)O)n2)c(OC)cc1N1CC[C@@H](N(C)C)C1 | – | human patients | oral, 300 mg, treatment-emergent adverse events | patients with dizziness | 9.8%
Cn1cncc1-c1c(F)cncc1NC(=O)c1c(N)nn2cc(F)cnc12 | – | human patients | oral, 180 mg once daily, 2 weeks on 1 week off | patients grade ≥3 Platelet count decrease | 0%
C[C@]1(O)C[C@@](N)(c2ccc(-c3nc4n(c3-c3ccccc3)COc3ccncc3-4)cc2)C1 | – | human, advanced or metastatic solid tumours | 16 mg once daily, dose-ranging cohort | patients with serious adverse event | 100%
Cn1nc(NS(C)(=O)=O)c2c(Cl)ccc(-n3c([C@H](Cc4cc(F)cc(F)c4)NC(=O)Cn4nc(C(F)F)c5c4C(F)(F)[C@@H]4C[C@H]54)nc4nc(OCCC(F)(F)F)ccc4c3=O)c21 | refers to: LDL cholesterol grade 3 increase | human | 300 mg once daily, powder in bottle | patients with laboratory abnormality | 13%

Some of these lines once more:
SMILES | test | test system | conditions | endpoint | value
Cn1cncc1-c1c(F)cncc1NC(=O)c1c(N)nn2cc(F)cnc12 | – | human patients | oral, 180 mg once daily, 2 weeks on 1 week off | patients grade ≥3 Platelet count decrease | 0%
